Published values collected from several papers.
Protocols differ between the studies behind these lines. ± gives the spread as reported.

SMILES	test	system	setting	Cmax
CCNC(=O)[C@@H]1CCCN1C(=O)[C@H](CCCNC(=N)N)NC(=O)[C@H](CC(C)C)NC(=O)[C@@H](CC(C)C)NC(=O)[C@H](Cc1ccc(O)cc1)NC(=O)[C@H](CO)NC(=O)[C@H](Cc1c[nH]c2ccccc12)NC(=O)[C@H](Cc1c[nH]cn1)NC(=O)[C@@H]1CCC(=O)N1		healthy female volunteers	oral, 1 mg single dose	1.9 ± 1.3 ng/mL
CCNC(=O)[C@@H]1CCCN1C(=O)[C@H](CCCNC(=N)N)NC(=O)[C@H](CC(C)C)NC(=O)[C@@H](CC(C)C)NC(=O)[C@H](Cc1ccc(O)cc1)NC(=O)[C@H](CO)NC(=O)[C@H](Cc1c[nH]c2ccccc12)NC(=O)[C@H](Cc1c[nH]cn1)NC(=O)[C@@H]1CCC(=O)N1		healthy premenopausal women, plasma	oral, 4 mg twice daily, day 1	4.1 ± 5.1 ng/mL
C[C@H]1[C@H](OC(=O)CCC(=O)O)O[C@@H]2O[C@@]3(C)CC[C@H]4[C@H](C)CC[C@@H]1[C@@]24OO3		healthy volunteers, plasma	oral, dose not given, fixed-dose combination	277 ng/mL
CCCCCCCOc1ccc(CCC(N)(CO)CO)cc1C(F)(F)F.Cl		healthy men, plasma	oral, 0.5 mg, day 21	3.56 ng/mL
OC[C@H]1O[C@@H](c2ccc(F)c(Cc3cc4ccccc4s3)c2)[C@H](O)[C@@H](O)[C@@H]1O		Japanese type 2 diabetes patients, plasma	oral, 25 mg/day, day 1	626 ± 128 ng/mL
COC(=O)c1ccc2c(c1)NC(=O)/C2=C(\Nc1ccc(N(C)C(=O)CN2CCN(C)CC2)cc1)c1ccccc1		healthy volunteers, plasma	oral, 150 mg single dose, alone	21.5 ng/mL
CCCCC1=NC2(CCCC2)C(=O)N1Cc1ccc(-c2ccccc2S(=O)(=O)Nc2noc(C)c2C)c(COCC)c1		healthy adult volunteers, plasma	oral, 50 mg, single dose, fasted, crushed tablet	1390 ng/mL
CS(=O)(=O)c1ccc([C@@H](O)[C@@H](CF)NC(=O)C(Cl)Cl)cc1		chicken (Arbor Acres), plasma	oral, 20 mg/kg, with: quercetin 20 mg/kg pretreatment	10000 ± 1230 ng/mL
C[C@@H]1CCO[C@H]2Cn3cc(C(=O)NCc4ccc(F)cc4F)c(=O)c(O)c3C(=O)N12	population PK, post-hoc	children, 25 to <30 kg, plasma	oral, 25 mg film-coated tablet, steady state, geometric mean	3020 ng/mL
CCCCC[C@H](O)CC[C@@H]1[C@H]2Cc3cccc(OCC(=O)O)c3C[C@H]2C[C@H]1O		healthy Japanese adults, plasma	inhaled, 18 µg single dose, scaled by body weight/60 kg	0.42 ± 0.06 ng/mL
CCc1nc2c(C)cc(N3CCN(CC(=O)N4CC(O)C4)CC3)cn2c1N(C)c1nc(-c2ccc(F)cc2)c(C#N)s1		healthy volunteers, fed, plasma	oral, 600 mg single dose, day 1, tablet	7500 ng/mL
COc1ccc2c(c1)CN(C(=O)CCN1CCC(Cc3ccccc3)CC1)CC[S@@+]2[O-]		healthy male volunteers, plasma	intravenous, 0.6 mg/kg	2000 ng/mL
O=C(Nc1cnccc1Cl)N1CCN(Cc2ccc3c(c2)OC(F)(F)O3)CC1		healthy young men, plasma	oral, 10 mg once daily, day 1	63.6 ng/mL
COc1nnc2ccc(N3CCC(c4ccc(OCCN5CCN(C)C(=O)[C@H]5C)cc4)CC3)nn12		patients, plasma	oral, 20 mg twice daily, multiple dose, monotherapy	109 nM
N[C@@H]1c2ccccc2OC12CCN(c1cnc3c(N4CCCc5ncccc54)n[nH]c3n1)CC2		advanced metastatic solid tumour patients, plasma	oral, 20 mg once daily, cycle 1 day 15, geometric mean	451 ng/mL
O=C(O)c1cc(O)c(O)c(O)c1		chicken Ross broiler, male, serum	oral, 0.49 mg/kg	510 ± 260 nM
CC(=O)Nc1ccc(C[C@H](NC(=O)[C@H](CO)NC(=O)[C@@H](Cc2cccnc2)NC(=O)[C@@H](Cc2ccc(Cl)cc2)NC(=O)[C@@H](Cc2ccc3ccccc3c2)NC(C)=O)C(=O)N[C@H](Cc2ccc(NC(C)=O)cc2)C(=O)N[C@@H](CC(C)C)C(=O)N[C@@H](CCCCNC(C)C)C(=O)N2CCC[C@H]2C(=O)N[C@H](C)C(N)=O)cc1		healthy men, fasted, serum	oral, 40 mg single dose	17.1 ± 12.7 ng/mL
N[C@@H](CC(=O)N1CCc2c(nc(C(F)(F)F)nc2C(F)(F)F)C1)CN1CC(F)(F)CCC1=O		healthy Korean adults, fasted, plasma	oral, 50 mg single dose, fixed-dose combination tablet, with: enavogliflozin 0.3 mg	104 ± 34 ng/mL
CNC(=O)c1cc(Oc2ccc(NC(=O)N(c3ccc(Cl)c(C(F)(F)F)c3)[C@@H]3O[C@H](C(=O)O)[C@@H](O)[C@H](O)[C@H]3O)cc2)ccn1		patients, plasma	oral, 400 mg twice daily, steady state, without rifampin, geometric mean	2560 ng/mL

SMILES	test	system	setting	Cmax
C=CC(=O)NC1CCN(c2ncc3ncnc(Nc4ccc(Oc5ccc6c(c5)ncn6C)c(C)c4)c3n2)CC1		healthy men	oral, 60 mg single dose	914 nM
C[C@@H](N)C1CCN(S(=O)(=O)c2cccc3cnccc23)CC1		healthy volunteers, fasted, plasma	oral, 250 mg	58 ng/mL
CC(=O)N[C@H]1CC[C@H](NC(=O)CN2CCN(c3nncc(-c4ccc(C)cc4)n3)CC2)CC1		women, plasma	oral, 100 mg single dose, study	1490 ng/mL
O=C(c1cccnc1-c1ccncc1)N1CCC(O)(Cc2ccccc2)CC1		healthy Japanese adults, plasma	oral, 200 mg single dose, arithmetic mean	850 ng/mL
CC(C)(C)c1cc(C(C)(C)C)c(NC(=O)c2c[nH]c3ccccc3c2=O)cc1O		human, plasma	oral, standard ETI dose	1300 ng/mL
CCCCOCCOc1ccc(-c2ccc3c(c2)/C=C(/C(=O)Nc2ccc([S@@+]([O-])Cc4cncn4CCC)cc2)CCCN3CC(C)C)cc1		mild hepatic impairment patients, plasma	oral, 150 mg, day 1, single dose, geometric mean	453 ng/mL
C[C@H]1CN(C(=O)CC#N)[C@]12CCN(c1ncnc3[nH]ccc13)C2		healthy adults, plasma	oral, 3 mg single dose	17 ng/mL
O=C([O-])CCCCCCCNC(=O)c1ccccc1O.[Na+]		healthy male and female subjects	dose not given, without semaglutide, geometric mean	1580 ng/mL
CC[C@H](C)CCCCC(=O)N[C@@H](CCN)C(=O)N[C@H](C(=O)N[C@@H](CCN)C(=O)N[C@H]1CCNC(=O)[C@H]([C@@H](C)O)NC(=O)[C@H](CCN)NC(=O)[C@H](CCN)NC(=O)[C@H](CC(C)C)NC(=O)[C@@H](Cc2ccccc2)NC(=O)[C@H](CCN)NC1=O)[C@@H](C)O		mild renal impairment, plasma	intravenous infusion, 0.75 mg/kg, geometric least squares mean	3580 ng/mL
C=CC(=O)NC1CCN(c2ncc3ncnc(Nc4ccc(Oc5ccc6c(c5)ncn6C)c(C)c4)c3n2)CC1	item: total radioactivity	healthy male volunteers, whole blood	oral solution, 60 mg, 14C-labelled, geometric mean	1110 nM
CCc1nc(C(N)=O)c(Nc2ccc(N3CCC(N4CCN(C)CC4)CC3)c(OC)c2)nc1NC1CCOCC1		patients, plasma	oral, 120 mg once daily, cycle 1 day 15, median	282 ng/mL
COc1c(O)cc(C(=O)O)cc1O		broiler chickens, serum	oral, in feed, 2000 mg/kg feed, 24 h, wheat diet with tannins	130 ± 50 nM
C#C[C@]1(O)CC[C@H]2[C@@H]3CCC4=CC(=O)CC[C@@H]4[C@H]3CC[C@@]21C	radioimmunoassay	HIV-infected women, no protease inhibitor, serum	oral, 0.35 mg, steady state, geometric mean	2.09 ng/mL
C[C@H]1[C@H]2N(C(=O)CN(C)N2C(=O)NCc2ccccc2)[C@@H](Cc2ccc(OP(=O)(O)O)cc2)C(=O)N1Cc1cccc2cccnc12		patients, plasma	intravenous infusion, 140 mg/m2 over 4 h, median	883 ng/mL
C[C@H](NC(=O)/C(C#N)=C/c1cccc(Br)n1)c1ccccc1	LC-MS/MS	patients, plasma	oral, 1 mg/kg, cycle 1 day 8	11.7 ng/mL
Cc1ccc(C(=O)NC2CC2)cc1-n1ncc(C(=O)c2cccc(C#N)c2)c1N		healthy volunteers	oral, 75 mg single dose, mean observed	729 ng/mL
CCCCCCCCCCCCCCCC(=O)N[C@@H](CCC(=O)NCCCC[C@@H]1NC(=O)[C@H]([C@@H](C)CC)NC(=O)[C@@H](NC(=O)[C@@H]2CCCN2C(=O)[C@H](Cc2ccccc2)NC(=O)[C@H](Cc2c[nH]cn2)NC(=O)[C@@H](NC(=O)[C@H](CC(=O)O)NC(=O)CC(C)C)[C@@H](C)O)CSSC[C@@H](C(=O)N[C@@H](CCCCN)C(N)=O)NC(=O)CNC(=O)[C@H](CCCCN)NC(=O)[C@H](CO)NC(=O)[C@H](CCCNC(=N)N)NC(=O)[C@@H]2CCCN2C(=O)[C@H](CCC(=O)O)NC(=O)[C@H](Cc2ccccc2)NC1=O)C(=O)O		healthy volunteers, plasma	subcutaneous, 60 mg single, lyophilised formulation	776 ± 842 ng/mL
CC[C@H](Nc1ncnc2[nH]cnc12)c1oc2ccccc2c(=O)c1-c1cccc(F)c1		patients, Cohort-3, plasma	oral, 800 mg twice daily, with: romidepsin 14 mg/m2	5790 ± 2430 ng/mL
C[C@@](Cc1ccc(O)c(O)c1)(NN)C(=O)O		male Parkinson's disease patients, plasma	oral, dose not given, median	45.3 ng/mL
